Measurements gathered from unrelated publications.
Numbered parts are unrelated; each lists some results of a single study. Positions count from the first letter of the parent shown.

Series 1
Target: RING finger protein unkempt homolog, zinc fingers 1-6, GST-SBP tag (UNK, Homo sapiens, UniProt Q9C0B0, residues 30-357)
UniProt Q9C0B0, sequence (30-357, looked up): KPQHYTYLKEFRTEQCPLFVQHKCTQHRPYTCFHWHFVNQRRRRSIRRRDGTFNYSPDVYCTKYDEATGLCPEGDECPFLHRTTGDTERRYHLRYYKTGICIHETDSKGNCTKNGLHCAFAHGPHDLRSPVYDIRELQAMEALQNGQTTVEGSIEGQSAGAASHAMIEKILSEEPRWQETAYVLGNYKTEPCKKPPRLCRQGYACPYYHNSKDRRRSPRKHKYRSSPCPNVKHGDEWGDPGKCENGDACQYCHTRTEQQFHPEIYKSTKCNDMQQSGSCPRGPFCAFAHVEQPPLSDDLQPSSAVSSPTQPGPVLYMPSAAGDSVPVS
Technique: RNA Bind-n-Seq
Form: RNA
Sample: in vitro
Concentration: not given
Setting: RNA with constant flanks, ends assumed
Relative to: input RNA pool
Direction: higher = stronger binding
Endpoint: bound/input enrichment
All sequences stand within: GGGAGUUCUACAGUCCGACGAUC … CAACAGAGGAUUGAGCAUCA
GCGGAAUAAUAAGCCGGGAUCUACCAUACCCAUUGACUAACUAUGGAAGAUUAUACCAAAACCGAGAAAAUUGGAGAAGGUACCUAUGGAGUUGUGUAUAAGGGUAGACACAAAACUACA: 0.194 ratio
GAAACUAUUCCUAAAGAGGAGAGAGCUGAGAAGGAUGCUCGGAGACCGUCUCUCGAGAAACACCGAAAAGAAAAGCCUUUUAAAACCGGGAGAGGCAGAAUUUCCACUCCUGAAAGAAAA: 0.196 ratio
AUGACAUUAGUGAAAGCAUCAAAGAGCUUCAGUUUUACCGAAAUAACAUCUUCAAGAAAAAAACCGAUGAAAAGAAGAGGAAAAUUAUAGAAAAUGGGGAAAAUGAGAAGACCGUGAGUU: 0.953 ratio
ACCCAAGUUGGAGUCAUUCGUUGCCCAGUUUGCAGCCAAGAAUGUGCAGAGAGACACAUCACCGAUAACUUUUUUGUGAAGGACACUACUGAGGUUCCCAGCAGUACAGUAGAAAAGUCA: 0.298 ratio
UUCUCCUCCUCUUCCUCCUCCUCCUCUGGUCCUAGGAGUUUUUACCCUCGCCAGGGCGCUACCCGCAAGUACCUGAUUGGAUGGAAAAAACCCGAAGGAACCAUAAACUCCGUGGGAUUU: 0.266 ratio
GACAUUUGGACCUUGUUGGGAACAGUGCUUUAUCCAUUCCUUGCCAUCUGGAGAUUAAUCCGCAAUUUCUUGUUUAGUAAUCCGCCUCCCACACAGACUUCAGUGAGAGUAACAUCGUCA: 0.397 ratio

Series 2
Target: CCNB2, cyclin fold, Cln2 fusion (human)
Technique: yeast growth competition, sequencing
Sample: yeast
Setting: weak parent motif
Relative to: not given
Direction: higher = stronger binding
Endpoint: normalised enrichment score
Starting sequence: ORC1 docking peptide (human); PRARKRLELGNLG; partner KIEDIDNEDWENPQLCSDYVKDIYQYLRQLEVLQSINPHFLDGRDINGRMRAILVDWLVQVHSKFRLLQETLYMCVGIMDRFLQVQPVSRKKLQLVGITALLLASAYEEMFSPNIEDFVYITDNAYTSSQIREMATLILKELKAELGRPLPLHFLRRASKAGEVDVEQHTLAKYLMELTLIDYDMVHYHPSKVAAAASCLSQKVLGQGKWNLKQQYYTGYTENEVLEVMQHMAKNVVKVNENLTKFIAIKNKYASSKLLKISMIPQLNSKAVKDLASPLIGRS
R2W: 0.958
G13N: 0.0519
R4G: 0.256
A3S: 0.737
K5N: 0.4
R2D: 0.317
G13H: 0.536
R2L: 0.0851
P1Q: 0.634
P1A: 1.18
G10F: 0.437
L9G: 0.461
A3N: 1.02
G10H: 0.354
L7W: 0.425
P1K: 1.31
G10Q: 0.182
N11A: 0.307
N11G: 0.613
K5R: 0.664
R4F: 0.0958
A3H: 0.574
P1G: -0.48
G13L: -0.131
N11I: -0.00776

Series 3
Target: ABI1, truncated, D143A, DHFR fusion (Arabidopsis thaliana)
Technique: DHFR PCA, deep sequencing
Sample: yeast
Setting: methotrexate growth selection, single substitutions
With: (+)-ABA 0.0091 µM
Relative to: wild-type fitted maximum
Direction: higher = stronger binding
Endpoint: relative binding score
Starting sequence: PYL1, truncated, DHFR fusion (Arabidopsis thaliana); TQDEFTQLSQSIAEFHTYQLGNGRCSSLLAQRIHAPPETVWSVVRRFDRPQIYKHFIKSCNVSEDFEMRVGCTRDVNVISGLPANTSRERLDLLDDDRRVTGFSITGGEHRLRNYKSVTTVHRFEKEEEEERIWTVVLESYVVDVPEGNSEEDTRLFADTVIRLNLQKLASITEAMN
I172R: -2.71%
F15W: 27.6%
G71H: -0.986%
N77H: 60.6%
T119D: -2.87%
I33C: 3.01%
F5Q: 5.52%
E67H: 5.99%
E127R: 40.9%
T160I: -3.75%
E152W: 2.71%
H122I: -9.69%
Q167C: 3.72%
K54C: -3.05%
T120N: -2.71%
N149A: 44.9%
R111N: -4.71%

Further values, each from its own experiment
TIMM8B (Homo sapiens, UniProt Q9Y5J9) — cross-linked residues (TIMM13 (Homo sapiens, UniProt Q9Y5L4); cross-linking MS; cell fractions; with: DMTMM): E53 to K53
PhoQ, residues 284 288 289 292 302 303 SVTLVV — fold induction (PhoP, residues 12 14 15 18 19 NYFTV (Escherichia coli, UniProt P23836); Sort-seq, measured: YFP reporter; E. coli; PhoQ-PhoP variant library, with: 10 µM Mg2+; relative to: high Mg2+ state, higher = stronger signaling): 15.6
EXOC4 (Homo sapiens, UniProt Q96A65) — cross-linked residues (EXOC2 (Homo sapiens, UniProt Q96KP1); cross-linking MS; cell fractions; with: DMTMM): K18 to E214
UBE2O (Homo sapiens, UniProt Q9C0C9) — interaction screen (PSAT1 (Homo sapiens, UniProt Q9Y617); cross-linking MS; hits only): cross-linked
FASTKD3 (Homo sapiens, UniProt Q14CZ7) — cross-linked residues (FASTKD1 (Homo sapiens, UniProt Q53R41); cross-linking MS; cell fractions; with: DSSO): K481 to K482

For quick reference, copied from above (series 2):
L7W: 0.425
G13H: 0.536
A3S: 0.737
P1A: 1.18
